Experimental data gathered from unrelated publications.
Lines come from different studies, so protocols differ. Numbers after ± are the reported error. Converted amounts (≈) assume the structure as drawn.
Organism: Escherichia coli

Structure (SMILES)	assay	system	conditions	how to read	quantity	result
CCC(=O)OCCSCCC(=O)N[C@H](CCN)C(=O)N[C@@H](CCN)C(=O)N[C@@H](CCN)C(=O)N[C@@H](CC(C)C)C(=O)N[C@H](Cc1ccccc1)C(=O)N[C@@H](CCN)C(=O)N[C@@H](CCN)C(=O)N[C@@H](CC(C)C)C(N)=O		ATCC 10546	24 h, 37 °C		MBC	32 µM (≈ 34.5 µg/mL)
O=c1n(CCNCCOS(=O)(=O)c2ccccc2)c(=O)n(S(=O)(=O)c2ccccc2)c(=O)n1S(=O)(=O)c1ccccc1	broth microdilution				MLC	8 ± 2 µg/mL
CO[C@@H](C(N)=O)[C@H](NC(=O)c1ccc(NC(=O)[C@@H](N)Cc2ccccc2)cc1)C(=O)Nc1ccc(C(=O)Nc2ccc(C(=O)Nc3ccc(C(=O)O)c(O)c3OC(C)C)c(O)c2OC(C)C)cc1		empty cosmid	concentration not given	relative to: albicidin	potency reduction	~10 fold
COc1ccc(CC2[NH2+]CCc3cc(OC)c(OC)cc32)cc1OC.[Cl][Fe-]([Cl])([Cl])[Cl] (stereo not drawn)			24 h, 37 °C		MBC	> 1600 µM
CC[C@H](C)[C@H](NC(=O)CNC(=O)[C@H](CCCCN)NC(=O)[C@@H](NC(=O)[C@H](Cc1c[nH]c2ccccc12)NC(=O)[C@H](CCCCN)NC(=O)[C@H](Cc1ccccc1)NC(=O)[C@@H](NC(=O)[C@H](CCCCN)NC(=O)[C@H](CCCCN)NC(=O)[C@@H](NC(=O)[C@H](Cc1c[nH]c2ccccc12)NC(=O)[C@H](Cc1c[nH]c2ccccc12)NC(=O)[C@@H](N)CCCCN)[C@@H](C)CC)C(C)C)[C@@H](C)CC)C(=O)NCC(=O)N[C@@H](CCCCN)C(=O)N[C@@H](CCC(=O)O)C(=O)N[C@H](C(=O)N[C@H](C(=O)N[C@H](C(=O)N[C@@H](CCCNC(=N)N)C(=O)N[C@H](C(=O)NCC(=O)N[C@H](C(=O)N[C@@H](CCC(=O)O)C(=O)N[C@H](C(=O)N[C@@H](C)C(=O)N[C@@H](C)C(=O)N[C@@H](CS)C(=O)N[C@@H](CCCCN)C(=O)N[C@H](C(=O)N[C@@H](CCCCN)C(=O)NCC(=O)N[C@@H](CCC(=O)O)C(=O)N[C@@H](CS)C(N)=O)[C@@H](C)CC)[C@@H](C)CC)[C@@H](C)CC)[C@@H](C)O)[C@@H](C)CC)C(C)C)C(C)C	colony count	PBS	20 µg/mL, 2 h		bactericidal rate	100%
CN(C)S(=O)(=O)c1ccc(S(=O)(=O)N2CCC(n3c(=O)[nH]c4ccccc43)CC2)cc1		Keio wild type	concentration not given, 72 h		streptomycin concentration	3.92 µg/mL
CC[C@H](C)[C@H](N)C(=O)N[C@@H](CC(C)C)C(=O)N[C@@H](CO)C(=O)N[C@@H](C)C(=O)N[C@@H](C)C(=O)N[C@@H](CCC(=O)O)C(=O)N[C@@H](CO)C(=O)NCC(=O)N[C@H](C(=O)N[C@@H](CS)C(=O)N[C@@H](CO)C(=O)N[C@@H](CC(C)C)C(=O)N[C@H](C(=O)NCCCCCC(=O)N[C@@H](Cc1c[nH]c2ccccc12)C(N)=O)C(C)C)[C@@H](C)CC		K-12 MG1655, MHB	concentration not given, 37 °C	relative to: untreated	relative growth rate	0.356
CC(=O)N[C@@H](CC(C)C)C(=O)N[C@H]1CSSC[C@@H](C(=O)N2CCC[C@H]2C(N)=O)NC(=O)[C@H]([C@@H](C)O)NC(=O)[C@H](C(C)C)NC(=O)[C@H]([C@@H](C)O)NC(=O)CNC(=O)[C@H](CC(C)C)NC(=O)[C@H](Cc2ccccc2)NC(=O)[C@H](Cc2ccc(O)cc2)NC(=O)[C@H](CC(C)C)NC(=O)[C@H](CCCCN)NC(=O)[C@H](Cc2ccccc2)NC(=O)[C@H](CCCNC(=N)N)NC(=O)[C@H](CCC(N)=O)NC(=O)[C@H](CC(C)C)NC(=O)[C@H](CCCCN)NC(=O)[C@@H]2CCCN2C(=O)[C@H](CCCCN)NC(=O)[C@H](C(C)C)NC(=O)[C@H](CCCCN)NC(=O)[C@H](Cc2ccc(O)cc2)NC(=O)[C@H]([C@@H](C)O)NC1=O			2.5 µM, 2 h, 37 °C	relative to: untreated	killed bacteria	100%
CC[C@H](C)CCCCC(=O)N[C@@H](CCN)C(=O)N[C@H](C(=O)N[C@@H](CCN)C(=O)N[C@H]1CCNC(=O)[C@H]([C@@H](C)O)NC(=O)[C@H](CCN)NC(=O)[C@H](CCN)NC(=O)[C@H](CC(C)C)NC(=O)[C@@H](CC(C)C)NC(=O)[C@H](CCN)NC1=O)[C@@H](C)O	daily serial passaging	ATCC 8739	highest sub-MIC, 4 days	relative to: initial MIC	MIC fold change	1.32
O=C(O)c1ncsc1-c1ccccc1		DH5α with VIM-2 plasmid	10 µg/mL, together with: meropenem		MIC of meropenem	2 µg/mL
CC[C@H](C)[C@H](NC(=O)[C@H](C)NC(=O)CNC(=O)[C@H](C)NC(=O)[C@H](CCCCN)NC(=O)[C@H](CO)NC(=O)[C@H](C)NC(=O)[C@H](CCSC)NC(=O)CN)C(=O)N[C@@H](C)C(=O)NCC(=O)N[C@@H](CCCCN)C(=O)N[C@H](C(=O)N[C@@H](C)C(=O)N[C@@H](CCCCN)C(=O)N[C@H](C(=O)N[C@@H](C)C(=O)N[C@@H](CC(C)C)C(=O)N[C@@H](CCCCN)C(=O)N[C@@H](C)C(=O)N[C@@H](CC(C)C)C(N)=O)C(C)C)[C@@H](C)CC		CFT073 wild type	together with: nalidixic acid		combination index	1.08
C=CC(=O)NCCCCCCOCc1cn(CCCCCCNC(=O)C=C)n[n+]1C	growth, turbidity OD600	ΔtolC	24 h		IC50	> 100 µM
CC1(C)C(NC(=O)C(=NOC2(C(=O)O)CC2)c2csc(N)n2)C(=O)N1OS(=O)(=O)O (stereo not drawn)		ATCC 2469 NDM-1 producing, ICR mice systemic infection	intravenous, 20 mg/kg		survival rate	80%
C[C@@H](N)[C@H](O)CCCCCCCC(=O)CCCCCCCCCCCCCC[C@@H](O[C@@H]1O[C@H](CO)[C@@H](O)[C@H](O)[C@H]1O)[C@@H](N)CO	microbial growth, resazurin	ATCC10536	50 µM		inhibition	96%
O=C1C=CC(=O)N1CCCCCCCCOCc1cn(CCCCCCCCN2C(=O)C=CC2=O)nn1	growth, turbidity OD600	ΔtolC	24 h		IC50	> 100 µM
CC[C@H](C)[C@H](NC(=O)[C@H](Cc1c[nH]c2ccccc12)NC(=O)c1ccccc1)C(=O)N[C@@H](CCCNC(=N)N)C(=O)N[C@@H](Cc1ccc(O)cc1)C(=O)N[C@@H](CCCCN)C(=O)N[C@@H](Cc1c[nH]c2ccccc12)C(=O)N1CCC[C@@H]1C(=O)N[C@@H](CCCNC(=N)N)C(=O)N[C@@H](CCCCN)C(=O)N[C@@H](CCCCN)C(=O)N[C@H](C(=O)N[C@@H](CCCNC(=N)N)C(=O)N[C@@H](Cc1ccc(O)cc1)C(=O)N[C@@H](Cc1c[nH]c2ccccc12)C(=O)N[C@H](C(=O)NCC(=O)N1CCC[C@H]1C(N)=O)[C@@H](C)O)C(C)C	growth	DH5α	16 h, 37 °C		IC50	45 µM
C=C(C)C(=O)NCCCCCCCCCCOCc1cn(CCCCCCCCCCNC(=O)C(=C)C)nn1	growth, turbidity OD600	ΔtolC	24 h		IC50	> 100 µM
C#CCCCC(=O)N[C@H]1CCOC1=O	LuxR reporter bioluminescence, antagonist	DH5α sensor strain	200 µM, together with: OHHL 200 nM		inhibition	29 ± 3%
C[n+]1nn(CCCCN2C(=O)C=CC2=O)cc1COCCCCN1C(=O)C=CC1=O	growth, turbidity OD600	ΔtolC	24 h		IC50	> 100 µM
COc1c(NC(=O)c2ccc(NC(=O)c3ccc(NC(=O)[C@H](CC#N)NC(=O)c4ccc(NC(=O)/C(C)=C/c5ccc(O)cc5)cc4)cc3)c(OC)c2O)ccc(C(=O)O)c1O		clones expressing transporters	concentration not given	relative to: empty vector	MIC fold change	> 16 fold
C=CS(=O)(=O)NCCCCCCOCc1cn(CCCCCCNS(=O)(=O)C=C)nn1	growth, turbidity OD600	ΔtolC	24 h		IC50	> 100 µM
C#CCN1C(=O)C(CC#C)(C(=O)OCC)Oc2ccccc21 (stereo not drawn)	bacterial growth	BL21(DE3)	100 µM, 4 h		OD600	> 0.9
C=CS(=O)(=O)NCCCCCCCCCCOCc1cn(CCCCCCCCCCNS(=O)(=O)C=C)nn1	growth, turbidity OD600	ΔtolC	24 h		IC50	> 100 µM
CC(C)C[C@H](NC(=O)[C@H](CCN)NC(=O)[C@H](CCN)NC(=O)[C@@H](Cc1ccccc1)NC(=O)[C@H](CC(C)C)NC(=O)[C@H](CCN)NC(=O)[C@H](CCN)NC(=O)[C@@H](CCN)NC(=O)CCSCCOC(=O)C(C)(C)C)C(N)=O		ATCC 10546	24 h, 37 °C		MBC	16 µM (≈ 17.7 µg/mL)

For quick reference, copied from above:
Structure (SMILES)	assay	system	conditions	how to read	quantity	result
CCC(=O)OCCSCCC(=O)N[C@H](CCN)C(=O)N[C@@H](CCN)C(=O)N[C@@H](CCN)C(=O)N[C@@H](CC(C)C)C(=O)N[C@H](Cc1ccccc1)C(=O)N[C@@H](CCN)C(=O)N[C@@H](CCN)C(=O)N[C@@H](CC(C)C)C(N)=O		ATCC 10546	24 h, 37 °C		MBC	32 µM (≈ 34.5 µg/mL)
O=c1n(CCNCCOS(=O)(=O)c2ccccc2)c(=O)n(S(=O)(=O)c2ccccc2)c(=O)n1S(=O)(=O)c1ccccc1	broth microdilution				MLC	8 ± 2 µg/mL
CO[C@@H](C(N)=O)[C@H](NC(=O)c1ccc(NC(=O)[C@@H](N)Cc2ccccc2)cc1)C(=O)Nc1ccc(C(=O)Nc2ccc(C(=O)Nc3ccc(C(=O)O)c(O)c3OC(C)C)c(O)c2OC(C)C)cc1		empty cosmid	concentration not given	relative to: albicidin	potency reduction	~10 fold
